Results from different studies.
Each line is one published result; not all experiments were run side by side. Numbers after ± are the reported error.

| SMILES | test | system | conditions | how to read | quantity | result |
| --- | --- | --- | --- | --- | --- | --- |
| CC(C)C[C@H](NC(=O)[C@H](C)NC(=O)[C@H](CCCCN)NC(=O)[C@H](CC(C)C)NC(=O)[C@H](C)NC(=O)[C@H](CC(C)C)NC(=O)[C@H](CCCCN)NC(=O)[C@H](CC(C)C)NC(=O)[C@H](C)NC(=O)[C@H](CC(C)C)NC(=O)[C@H](CCCCN)NC(=O)c1ccc2c(c1)C(=O)OC21c2ccc(O)cc2Oc2cc(O)ccc21)C(=O)N[C@@H](CCCCN)C(=O)N[C@@H](C)C(=O)N[C@@H](C)C(=O)N[C@@H](CC(C)C)C(=O)N[C@@H](CCCCN)C(=O)N[C@@H](CC(C)C)C(=O)N[C@@H](C)C(=O)O | no effect | Sprague-Dawley rat, excised skin | 50 µmol/L, 37 °C, FAM-labelled CPP conjugate | baseline: free FAM | apparent skin permeability | no effect |
| COc1ccsc1CNCC[C@@]1(c2ccccn2)CCOC2(CCCC2)C1 | – | healthy human, normal renal function, plasma | intravenous, 1 mg single dose, arithmetic mean | – | volume of distribution (Vz) | 196 L |
| C[C@H]1CNCCc2ccc(Cl)cc21 | – | male Sprague-Dawley rat, plasma | subcutaneous, pimavanserin 1 + lorcaserin 1 mg/kg, pimavanserin 15 min earlier | – | AUC extrapolated | 7.55 ± 0.52% |
| Cc1ncc(OC[C@@]2(c3cccc(F)c3)C[C@H]2C(=O)Nc2ccc(F)cn2)c(C)n1 | – | human, male | oral, 10 mg | – | fraction absorbed | 0.87 |
| CC(C)C[C@@H]1NC(=O)[C@H](C)N(C)C(=O)[C@H](Cc2ccccc2)NCc2cc(cn2C)CNC1=O | – | PAMPA | 100 µM, 17 h, pH 6.4 | – | Papp | 2.4 nm/s |
| Cc1ncc2n1-c1ccc(Cl)cc1C(c1ccccc1F)=NC2 | – | healthy men, plasma | oral, 7.5 mg, day 19, LS mean, with: 7 days post amenamevir | – | AUC(0-inf) | 0.124 µg·h/mL |
| Cc1ncc2n1-c1ccc(Cl)cc1C(c1ccccc1F)=NC2 | – | human CYP3A5*3/*3 non-expressers, serum | oral, median, with: ketoconazole 200 mg | – | Tmax | 1.5 h |
| Cc1ncc2n1-c1ccc(Cl)cc1C(c1ccccc1F)=NC2 | – | healthy volunteers, plasma | oral, 7.5 mg single dose, day 1, geometric mean, alone | – | t1/2 | 5.15 h |
| COc1ccc2c(c1)[C@]13CCCC[C@@H]1[C@H](C2)N(C)CC3 | – | Wistar rat, both sexes, plasma | oral, 5 mg/kg, 2 h after pretreatment, with: single TCE 100 mg/kg | – | AUC(0-t) | 0.226 ± 0.0613 µg·h/mL |
| Cc1ncc2n1-c1ccc(Cl)cc1C(c1ccccc1F)=NC2 | – | healthy human volunteers, plasma | oral, 5 mg single dose, geometric mean, with: water | – | AUC(0-last) | 197 nM·h |
| N[C@@]1(c2ccccc2Cl)CCC[C@@H](O)C1=O | – | male CD-1 mice, brain | intravenous, 50 mg/kg, 10 min | – | brain concentration | 20.4 µg/g |
| CCCCCCCCCCC(=O)O[C@H]1CC[C@H]2[C@@H]3CCC4=CC(=O)CC[C@]4(C)[C@H]3CC[C@]12C | – | human blood | 600 ng/mL, 60 min, 4 °C, NaF 5 mg/mL, K2 oxalate 4 mg/mL | baseline: no compound added | testosterone change | 29.8% |
| CN1CC[C@@]23CCCC[C@@H]2[C@@H]1Cc1ccc(O)cc13 | – | Wistar rat, both sexes, plasma | oral, 5 mg/kg DEM, DEM 2 h after pretreatment, with: TCE 100 mg/kg single pretreatment | – | MRT(0-t) | 4.86 ± 0.95 h |
| C[C@]12CC[C@H]3[C@@H](CCC4=CC(=O)CC[C@@]43C)[C@@H]1CC[C@@H]2O | – | beagle dog, male, liver microsomes | 10 µM, pH 7.4, with: NADPH | – | half-life | 0.5 h |
| C[C@@H]1N=C(c2ccccc2F)c2cc(Br)ccc2NC1=O | – | male Wistar rat, plasma | intraperitoneal, 2 mg/kg, 20 min | – | concentration | 0.819 µM |
| C=C1C[C@@H]2[C@H](CC[C@]3(C)C(=O)CC[C@@H]23)[C@@]2(C)C=CC(=O)C=C12 | LC-MS/MS | postmenopausal breast cancer patients, plasma | oral, 25 mg/day, 2 h, steady state, outlier excluded | baseline: CYP3A4*22 carriers over non-carriers | plasma concentration difference | 43% |
| COC(=O)c1ncn2c1[C@H](C)N=C(c1ccccc1F)c1cc(Br)ccc1-2 | metabolic stability | human, liver microsomes | 30 min | – | compound remaining | < 5% |

A few entries again:
| SMILES | test | system | conditions | how to read | quantity | result |
| --- | --- | --- | --- | --- | --- | --- |
| COc1ccc2c(c1)[C@]13CCCC[C@@H]1[C@H](C2)N(C)CC3 | – | Wistar rat, both sexes, plasma | oral, 5 mg/kg, 2 h after pretreatment, with: single TCE 100 mg/kg | – | AUC(0-t) | 0.226 ± 0.0613 µg·h/mL |
| Cc1ncc2n1-c1ccc(Cl)cc1C(c1ccccc1F)=NC2 | – | healthy human volunteers, plasma | oral, 5 mg single dose, geometric mean, with: water | – | AUC(0-last) | 197 nM·h |
